Measured values gathered from unrelated publications.
Parts stem from different laboratories: compare values within a part only. Values joined by “and” are separate records of one study, mostly repeats; a detail may differ.
Sequence of UniProt P29317 (whole entry, looked up): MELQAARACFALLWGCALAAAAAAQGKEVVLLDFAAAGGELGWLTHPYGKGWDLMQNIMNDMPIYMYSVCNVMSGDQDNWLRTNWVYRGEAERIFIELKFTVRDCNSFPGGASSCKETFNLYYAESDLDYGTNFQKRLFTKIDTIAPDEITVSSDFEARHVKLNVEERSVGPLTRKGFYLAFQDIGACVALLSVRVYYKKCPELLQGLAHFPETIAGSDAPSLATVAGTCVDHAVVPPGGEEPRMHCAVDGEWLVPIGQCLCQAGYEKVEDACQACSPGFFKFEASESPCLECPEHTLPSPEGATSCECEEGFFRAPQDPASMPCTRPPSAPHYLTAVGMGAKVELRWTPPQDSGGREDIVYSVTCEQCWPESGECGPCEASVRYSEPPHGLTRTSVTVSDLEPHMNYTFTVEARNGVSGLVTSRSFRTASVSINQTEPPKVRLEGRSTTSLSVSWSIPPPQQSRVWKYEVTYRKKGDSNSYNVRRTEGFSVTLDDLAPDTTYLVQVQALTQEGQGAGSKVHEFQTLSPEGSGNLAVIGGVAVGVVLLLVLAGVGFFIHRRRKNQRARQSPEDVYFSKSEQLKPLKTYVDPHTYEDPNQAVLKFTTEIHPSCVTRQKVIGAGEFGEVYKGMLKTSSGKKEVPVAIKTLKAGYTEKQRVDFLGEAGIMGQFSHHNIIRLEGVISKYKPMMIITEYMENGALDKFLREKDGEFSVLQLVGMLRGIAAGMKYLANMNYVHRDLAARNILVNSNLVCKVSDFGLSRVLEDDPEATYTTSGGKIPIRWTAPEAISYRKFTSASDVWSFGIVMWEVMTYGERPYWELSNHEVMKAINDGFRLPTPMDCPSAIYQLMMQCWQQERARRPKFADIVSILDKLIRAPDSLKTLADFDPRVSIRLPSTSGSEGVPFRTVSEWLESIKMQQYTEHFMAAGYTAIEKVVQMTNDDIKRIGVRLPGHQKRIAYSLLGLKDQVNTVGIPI
Sequence of UniProt Q07002 (whole entry, looked up): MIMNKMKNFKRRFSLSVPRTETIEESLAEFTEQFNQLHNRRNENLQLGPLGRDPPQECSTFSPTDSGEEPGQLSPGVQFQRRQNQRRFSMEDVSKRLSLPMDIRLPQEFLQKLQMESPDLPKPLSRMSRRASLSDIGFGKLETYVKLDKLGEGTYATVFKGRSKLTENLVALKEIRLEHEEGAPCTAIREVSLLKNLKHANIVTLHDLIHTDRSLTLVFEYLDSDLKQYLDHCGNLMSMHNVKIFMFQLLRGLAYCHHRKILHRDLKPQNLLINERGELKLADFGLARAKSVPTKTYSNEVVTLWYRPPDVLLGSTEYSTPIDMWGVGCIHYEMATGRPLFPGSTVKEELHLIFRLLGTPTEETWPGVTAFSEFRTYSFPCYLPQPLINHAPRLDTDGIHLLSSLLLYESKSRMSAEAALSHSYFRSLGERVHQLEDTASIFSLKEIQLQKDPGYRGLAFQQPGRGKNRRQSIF
Sequence of UniProt P29322 (whole entry, looked up): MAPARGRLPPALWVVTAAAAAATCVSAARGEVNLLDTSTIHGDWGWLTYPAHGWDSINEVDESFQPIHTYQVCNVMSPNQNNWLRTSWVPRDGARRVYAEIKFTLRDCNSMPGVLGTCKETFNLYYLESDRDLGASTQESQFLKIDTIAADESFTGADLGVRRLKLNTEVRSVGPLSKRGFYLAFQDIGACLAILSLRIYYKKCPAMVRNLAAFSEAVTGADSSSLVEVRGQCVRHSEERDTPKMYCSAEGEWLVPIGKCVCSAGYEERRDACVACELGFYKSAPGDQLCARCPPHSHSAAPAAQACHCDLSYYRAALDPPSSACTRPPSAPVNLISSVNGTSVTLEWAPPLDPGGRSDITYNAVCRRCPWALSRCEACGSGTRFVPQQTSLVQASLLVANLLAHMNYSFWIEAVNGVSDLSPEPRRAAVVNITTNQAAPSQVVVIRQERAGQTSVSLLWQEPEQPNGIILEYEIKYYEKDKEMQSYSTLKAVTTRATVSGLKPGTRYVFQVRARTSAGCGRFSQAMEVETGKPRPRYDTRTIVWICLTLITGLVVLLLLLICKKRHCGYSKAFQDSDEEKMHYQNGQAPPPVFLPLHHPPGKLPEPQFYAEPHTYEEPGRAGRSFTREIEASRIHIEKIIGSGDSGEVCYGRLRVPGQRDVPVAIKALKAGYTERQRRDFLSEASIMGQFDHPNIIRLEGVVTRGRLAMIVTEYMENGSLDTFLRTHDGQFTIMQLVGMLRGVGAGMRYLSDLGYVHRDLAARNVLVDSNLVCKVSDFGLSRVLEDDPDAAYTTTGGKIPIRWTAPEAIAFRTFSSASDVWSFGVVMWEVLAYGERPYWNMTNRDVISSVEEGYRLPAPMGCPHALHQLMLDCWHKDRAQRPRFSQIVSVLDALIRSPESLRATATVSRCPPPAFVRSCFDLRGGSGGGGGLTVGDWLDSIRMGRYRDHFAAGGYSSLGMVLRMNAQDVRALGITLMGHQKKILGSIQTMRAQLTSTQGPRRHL
Sequence of UniProt P17948 (whole entry, looked up): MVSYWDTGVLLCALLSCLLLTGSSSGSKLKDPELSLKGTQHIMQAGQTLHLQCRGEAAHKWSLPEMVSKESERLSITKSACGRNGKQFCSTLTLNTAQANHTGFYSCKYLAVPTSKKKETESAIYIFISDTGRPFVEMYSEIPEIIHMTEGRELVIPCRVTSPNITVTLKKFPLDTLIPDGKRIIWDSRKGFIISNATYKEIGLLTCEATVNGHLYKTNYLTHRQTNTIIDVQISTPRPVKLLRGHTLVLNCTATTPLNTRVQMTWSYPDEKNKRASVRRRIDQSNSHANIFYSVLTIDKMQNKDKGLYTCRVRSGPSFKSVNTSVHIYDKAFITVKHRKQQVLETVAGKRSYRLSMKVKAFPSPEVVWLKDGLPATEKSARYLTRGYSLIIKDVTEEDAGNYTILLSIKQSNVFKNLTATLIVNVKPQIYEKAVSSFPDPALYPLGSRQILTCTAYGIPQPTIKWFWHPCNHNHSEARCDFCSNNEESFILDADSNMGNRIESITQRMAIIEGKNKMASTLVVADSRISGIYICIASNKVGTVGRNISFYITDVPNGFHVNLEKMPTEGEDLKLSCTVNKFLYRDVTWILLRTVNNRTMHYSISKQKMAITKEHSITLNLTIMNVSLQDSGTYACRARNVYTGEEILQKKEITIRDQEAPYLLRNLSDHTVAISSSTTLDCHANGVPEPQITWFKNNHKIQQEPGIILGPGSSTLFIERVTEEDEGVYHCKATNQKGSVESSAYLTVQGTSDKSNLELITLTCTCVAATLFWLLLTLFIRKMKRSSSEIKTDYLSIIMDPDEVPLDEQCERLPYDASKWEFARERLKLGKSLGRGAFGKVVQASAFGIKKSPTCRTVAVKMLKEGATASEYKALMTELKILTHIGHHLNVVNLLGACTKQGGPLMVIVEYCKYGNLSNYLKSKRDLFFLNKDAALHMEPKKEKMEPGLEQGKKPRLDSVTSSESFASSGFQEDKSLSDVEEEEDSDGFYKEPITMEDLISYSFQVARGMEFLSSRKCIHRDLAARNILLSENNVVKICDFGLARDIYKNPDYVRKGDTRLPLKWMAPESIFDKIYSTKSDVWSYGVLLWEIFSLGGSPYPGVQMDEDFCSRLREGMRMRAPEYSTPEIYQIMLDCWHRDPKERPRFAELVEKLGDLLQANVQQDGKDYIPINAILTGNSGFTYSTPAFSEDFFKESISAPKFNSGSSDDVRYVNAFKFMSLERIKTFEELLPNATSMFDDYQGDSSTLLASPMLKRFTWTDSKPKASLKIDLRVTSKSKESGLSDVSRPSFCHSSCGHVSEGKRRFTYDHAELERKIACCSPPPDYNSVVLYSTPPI
Sequence of UniProt Q9HBY8 (whole entry, looked up): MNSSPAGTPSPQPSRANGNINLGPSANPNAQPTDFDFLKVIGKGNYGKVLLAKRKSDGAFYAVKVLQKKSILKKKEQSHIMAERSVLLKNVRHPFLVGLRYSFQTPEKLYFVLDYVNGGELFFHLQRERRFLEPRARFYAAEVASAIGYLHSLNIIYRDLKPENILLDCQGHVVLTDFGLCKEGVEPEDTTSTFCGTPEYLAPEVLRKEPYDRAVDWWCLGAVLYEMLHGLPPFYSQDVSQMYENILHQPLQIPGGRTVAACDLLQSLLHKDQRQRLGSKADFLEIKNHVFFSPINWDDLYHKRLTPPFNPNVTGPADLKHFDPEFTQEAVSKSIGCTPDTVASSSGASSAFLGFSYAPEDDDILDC
Sequence of UniProt P48730 (whole entry, looked up): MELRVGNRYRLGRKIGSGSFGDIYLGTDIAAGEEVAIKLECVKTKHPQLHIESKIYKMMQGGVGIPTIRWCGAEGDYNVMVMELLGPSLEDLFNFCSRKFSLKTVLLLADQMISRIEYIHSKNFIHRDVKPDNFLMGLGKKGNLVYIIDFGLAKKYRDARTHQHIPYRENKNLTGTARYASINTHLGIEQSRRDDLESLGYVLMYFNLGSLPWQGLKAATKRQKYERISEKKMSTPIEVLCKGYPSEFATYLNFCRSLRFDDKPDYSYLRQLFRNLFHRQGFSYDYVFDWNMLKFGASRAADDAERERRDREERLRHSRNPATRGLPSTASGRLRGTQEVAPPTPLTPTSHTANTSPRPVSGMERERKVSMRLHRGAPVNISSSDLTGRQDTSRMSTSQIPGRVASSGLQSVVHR
Sequence of UniProt Q14012 (whole entry, looked up): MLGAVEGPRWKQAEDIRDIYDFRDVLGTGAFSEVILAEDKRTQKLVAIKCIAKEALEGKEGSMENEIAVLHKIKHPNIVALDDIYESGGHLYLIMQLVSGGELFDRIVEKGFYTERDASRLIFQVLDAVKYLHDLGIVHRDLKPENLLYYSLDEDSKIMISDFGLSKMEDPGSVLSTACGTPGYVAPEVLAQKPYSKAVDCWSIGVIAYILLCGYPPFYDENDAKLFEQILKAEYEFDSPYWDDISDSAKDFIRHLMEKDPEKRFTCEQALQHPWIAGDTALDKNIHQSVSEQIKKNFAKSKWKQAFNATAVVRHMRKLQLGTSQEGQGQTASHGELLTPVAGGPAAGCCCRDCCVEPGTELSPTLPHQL

Sample 1
SMILES: C[C@@H](c1cccc(C#N)c1)n1cc(Cl)cc(C(N)=O)c1=N
Observed: cell-free assay
Technique: competition with immobilised ligand
Concentration: 1 µM
target	remaining binding
PTK6 (Homo sapiens, UniProt Q13882)	85%
Ribosomal protein S6 kinase alpha-6, N-terminal kinase domain (RPS6KA6, Homo sapiens, UniProt Q9UK32)	82%
EPHA8 (Homo sapiens, UniProt P29322)	90%
PIK3CA (Homo sapiens, UniProt P42336, Q546K)	100%
CDK18 (Homo sapiens, UniProt Q07002)	100%
FGFR1 (Homo sapiens, UniProt P11362)	91%
TAOK3 (Homo sapiens, UniProt Q9H2K8)	75%
MAP3K2 (Homo sapiens, UniProt Q9Y2U5)	100%
Non-receptor tyrosine-protein kinase TYK2, JH1 (TYK2, Homo sapiens, UniProt P29597)	100%
PKN2 (Homo sapiens, UniProt Q16513)	100%
STK26 (Homo sapiens, UniProt Q9P289)	68%
KIT (Homo sapiens, UniProt P10721, V559D/V654A)	99%
Ribosomal protein S6 kinase alpha-5, N-terminal kinase domain (RPS6KA5, Homo sapiens, UniProt O75582)	93%
MAP2K5 (Homo sapiens, UniProt Q13163)	88%

Sample 2
Compound: CCOc1ccc(Nc2c3c(nc4ccccc24)CCC3)cc1
Organism: Leishmania infantum chagasi
Technique: qPCR
Host: golden hamster chronic infection
Medium: liver
Route: oral
Dose: 10 mg/kg/day
Time: 10 days
measured	threshold cycle
IL4 mRNA	24 cycles and 24.4 cycles and 27.5 cycles and 24.3 cycles and 24.7 cycles and 23.9 cycles
TNF mRNA	25.2 cycles and 24.6 cycles and 28 cycles and 24.9 cycles and 24.8 cycles and 24.4 cycles
IL10 mRNA	35.3 cycles and 35.1 cycles and 36.2 cycles and 34.8 cycles and 37.1 cycles

Sample 3
Host: human
Medium: microsomes or S9
Concentration: 2 µM
Time: 0.5 h
Compound	remaining compound
CC(NCc1cccc(OCc2cccnc2)c1)c1ccc2c(c1)OCCCO2 (stereo not shown)	0.273%
O=C(C1CC(=O)N(c2nc[nH]n2)C1)N1CCC(c2c[nH]c3ccccc23)(c2c[nH]c3ccccc23)CC1 (stereo not shown)	6.95%
O=c1cc(-c2ccccc2)[nH]c2nc(CCc3ccccc3)nn12	88.5%
CCOc1cccc2c(C)nc(Nc3nc(=O)c4c([nH]3)CCCC4)nc12	14.5%
Cc1cc(C(=O)NC2CCCc3c2[nH]c2ccccc32)c2c(C)noc2n1 (stereo not shown)	77.7%
COc1ccc(-n2nc([S+](C)[O-])c(-n3ccnc3)c2-c2ccc(Cl)c(Cl)c2)cc1 (stereo not shown)	28.5%
CCOC1CC(N(C)C(=O)COCc2ocnc2C(=O)O)C1(C)C (stereo not shown)	> 100%
COC(=O)c1ccc2c(=O)n(-c3ccccc3)c(N(Cc3ccco3)C3CCCC3)nc2c1	22.6%
CCNS(=O)(=O)c1cc(-c2ccc(=O)[nH]n2)sc1C	73.5%
Cc1ccc2c(c1)C(NC(=O)c1ccc(CS(=O)(=O)c3ccc(Br)cc3)o1)CC1(CCCCC1)O2 (stereo not shown)	87.1%
COc1cc(=O)n(C)cc1C(=O)NCc1csc2ncnn12	70.6%

Sample 4
Structure (SMILES): COc1cc(C(=O)OCCCN2CCCN(CCCOC(=O)c3cc(OC)c(OC)c(OC)c3)CC2)cc(OC)c1OC
Technique: von Frey test
observed	host	route	dose	time	notes	paw withdrawal threshold
	mouse, CFA inflammatory pain	intravenous	dose not given	3 h post-dose	third injection, day 5	0.32 g and 0.4 g and 0.23 g and 0.29 g
mechanical pain	mouse, STZ diabetic neuropathy	intravenous	30 mg/kg	24 h post-dose	third injection	0.29 g and 0.08 g and 0.13 g
	mouse, CFA inflammatory pain	subcutaneous	10 mg/kg	5 h post-dose	third injection, day 5	0.36 g and 0.13 g and 0.23 g
mechanical pain	mouse, STZ diabetic neuropathy	intravenous	30 mg/kg	24 h post-dose	first injection, day 8	0.15 g and 0.36 g and 0.29 g and 0.03 g
mechanical pain	mouse, STZ diabetic neuropathy	intravenous	30 mg/kg	3 h post-dose	first injection, day 8	0.02 g and 0.05 g and 0.23 g and 0.2 g
	mouse, CFA inflammatory pain	subcutaneous	10 mg/kg	24 h post-dose	second injection, day 3	0.29 g and 0.19 g and 0.23 g

Sample 5
SMILES: c1ccc2c(-c3ccncc3)c[nH]c2c1
Observed: enzyme activity
Action: inhibitor
Concentration: 0.5 µM
Relative to: control
target	remaining activity
EPHA2 (Homo sapiens, UniProt P29317)	106%
MUSK (Homo sapiens, UniProt O15146)	78.9%
TYRO3 (Homo sapiens, UniProt Q06418)	98.1%
CAMK1 (Homo sapiens, UniProt Q14012)	108%
IGF1R (Homo sapiens, UniProt P08069)	105%
PAK6 (Homo sapiens, UniProt Q9NQU5)	104%
CSNK1E (Homo sapiens, UniProt P49674)	100%
PRKCQ (Homo sapiens, UniProt Q04759)	125%
JAK1 (Homo sapiens, UniProt P23458)	109%
PRKCZ (Homo sapiens, UniProt Q05513)	98.3%
SIK2 (Homo sapiens, UniProt Q9H0K1)	90.5%
CLK2 (Homo sapiens, UniProt P49760)	101%
CSNK1D (Homo sapiens, UniProt P48730)	105%
EPHA6 (Homo sapiens, UniProt Q9UF33)	104%
MAP3K20 (Homo sapiens, UniProt Q9NYL2)	102%
FLT1 (Homo sapiens, UniProt P17948)	97.9%
SRPK1 (Homo sapiens, UniProt Q96SB4)	108%
RPS6KA3 (Homo sapiens, UniProt P51812)	97.4%
TEC (Homo sapiens, UniProt P42680)	123%
PAK1 (Homo sapiens, UniProt Q13153)	99.1%
CLK1 (Homo sapiens, UniProt P49759)	105%
CAMKK1 (Homo sapiens, UniProt Q8N5S9)	122%
Cyclin-dependent kinase 2, with cyclin E (CDK2, Homo sapiens, UniProt P24941)	91.7%
SGK2 (Homo sapiens, UniProt Q9HBY8)	91%

A few entries again (sample 5):
target	remaining activity
MUSK (Homo sapiens, UniProt O15146)	78.9%
TYRO3 (Homo sapiens, UniProt Q06418)	98.1%
CAMK1 (Homo sapiens, UniProt Q14012)	108%
IGF1R (Homo sapiens, UniProt P08069)	105%
PAK6 (Homo sapiens, UniProt Q9NQU5)	104%
CSNK1E (Homo sapiens, UniProt P49674)	100%
PRKCQ (Homo sapiens, UniProt Q04759)	125%
